# Published values from different studies.
# Several values in a cell are separate wells, animals, samples, runs or records. ± marks the error that the study gave.
SMILES,tested on,assay,test system,setting,quantity,result
O=C1Nc2cc3[nH]nc(-c4ccncc4)c3cc2CN1Cc1ccccc1,,CTCAE v4.03,advanced solid tumour patients,"intravenous, 0.9 mg/kg, schedules 1/2",patients with dyspnoea,0%
O=S(=O)(Nc1ccccc1)c1ccc(NC(=S)Nc2ccccc2)cc1,,refers to: Ca,"male mouse, blood","oral, 20 mg/kg daily, 14 days",blood chemistry level,9.55 mg/dL
Nc1ncnc2c1ncn2[C@@H]1O[C@@H]2COP(=O)([S-])O[C@@H]3[C@H](O)[C@@H](COP([O-])(=S)O[C@H]2[C@H]1O)O[C@H]3n1cnc2c(N)ncnc21.[Na+].[Na+] (stereo partly shown),,,"non-tumor-bearing mice, blood","intravenous, 1 mg/kg, toxicity study",MCHC,594 ± 7 g/L
CCc1ccc(CC/C=C/c2ccc3c(c2)C(=O)CC3)cc1,,,"Sprague-Dawley rat, female","oral, 450 mg/kg/day, 14 days",Calcium,2.47 mM
CN1CC[C@@H](c2c(O)cc(O)c3c(=O)cc(-c4ccc(C(F)(F)F)cc4Cl)oc23)[C@@H]1CO,,refers to: Constipation,AML,"oral, 200 mg, intermittent dosing",patients with adverse event,20%
Cn1c(-c2ccc(C(N)=O)cc2F)nnc1C(C)(C)Oc1c(F)cc(Cl)cc1F,,,human,"oral, dose not given, single ascending dose all doses",subjects with puncture site pain,5.6%
COc1cc2c(Oc3ccc4[nH]c(C)cc4c3F)ccnc2cc1OCC1(N)CC1,,,paediatric recurrent refractory sarcoma,12 mg,grade 1 or 2 blurred vision,9.1%
COc1ccc(-c2c(-c3ccc(C#N)c(F)c3)nc(N3CCC(N)CC3)n(C)c2=O)cc1F,,refers to: Hypokalemia,human patients,"oral, 60 mg, dose expansion",serious adverse event incidence,0%
CCC(=O)c1ccc2c(c1)N(CCCN1CCN(CCO)CC1)c1ccccc1S2,African green monkey cells,,,5 days,CC50,6.31 µM
C[C@]1(CO)Cc2ncn(-c3ccc(C#N)c(Cl)c3)c2C(=O)O1,,,"human, Chinese, plasma","20 mg single dose, median",tmax,1 h
CC[C@H](C)[C@H](NC(=O)[C@H](Cc1ccccc1)NC(=O)[C@H](CCC(=O)O)NC(=O)[C@H](CCCNC(=N)N)NC(=O)[C@H](C)NC(=O)[C@H](C)NC(=O)[C@H](CCC(N)=O)NC(=O)[C@H](CCC(=O)O)NC(=O)[C@H](CCC(=O)O)NC(=O)[C@H](CC(C)C)NC(=O)[C@H](Cc1ccc(O)cc1)NC(=O)[C@H](CO)NC(=O)[C@H](CO)NC(=O)[C@@H](NC(=O)[C@H](CC(=O)O)NC(=O)[C@H](CO)NC(=O)[C@@H](NC(=O)[C@H](Cc1ccccc1)NC(=O)[C@@H](NC(=O)CNC(=O)[C@H](CCC(=O)O)NC(=O)[C@H](C)NC(=O)CCc1cnc[nH]1)[C@@H](C)O)[C@@H](C)O)C(C)C)C(=O)N[C@@H](C)C(=O)N[C@@H](Cc1c[nH]c2ccccc12)C(=O)N[C@@H](CC(C)C)C(=O)N[C@H](C(=O)N[C@@H](CCCNC(=N)N)C(=O)NCC(=O)N[C@@H](CCCNC(=N)N)C(=O)N[C@@H](CCCCNC(=O)COCCOCCNC(=O)COCCOCCNC(=O)CC[C@H](NC(=O)CCCCCCCCCCCCCCCCC(=O)O)C(=O)O)C(=O)NCC(=O)NCC(=O)N[C@@H](CO)C(=O)N[C@@H](CCCCNC(=O)[C@H](CCCCNc1c(NCCCCCN(O)C(=O)CCC(=O)NCCCCCN(O)C(=O)CCC(=O)NCCCCCN(O)C(C)=O)c(=O)c1=O)Nc1c(NCCCCCN(O)C(=O)CCC(=O)NCCCCCN(O)C(=O)CCC(=O)NCCCCCN(O)C(C)=O)c(=O)c1=O)C(=O)O)C(C)C [zirconium-89 labelled],,ex vivo gamma counting,"Sprague-Dawley rat, male, lung","intravenous, 1 nmol, 24 h",tissue uptake,0.707 %ID/g and 0.593 %ID/g and 0.664 %ID/g and 0.753 %ID/g and 0.655 %ID/g
CC(C)C(=O)OC[C@H]1O[C@@H](n2ccc(NO)nc2=O)[C@H](O)[C@@H]1O,,,rat fetus dialysate,"250 ng/mL, 6 h, 10 °C, high QC concentration, with: NHC 1000 ng/mL",autosampler stability,99.7 ± 2.02%
CC(C)(c1ccccc1)c1cc(-n2nc3ccccc3n2)c(O)c(C(C)(C)c2ccccc2)c1,,exposure assessment,"human, age 2-3 years",spray sunscreen,mean daily dermal uptake,12.9 ng/kg body weight/day
CCCNCCc1c[nH]c2cccc(O)c12.CCCNCCc1c[nH]c2cccc(O)c12.O=C(O)/C=C/C(=O)O,,,C57BL/6J mice,"subcutaneous, 3 mg/kg, 30 min",distance travelled,2930 ± 305 cm
Cc1c(-c2ccccc2)oc2c(C(=O)OC(C)(C)CN3CCCCC3)cccc2c1=O,African green monkey cells,,,5 days,CC50,63.1 µM
C[C@@H]1OC(=O)NN=C1c1ccc(-c2ccc(F)cc2)c(C(F)(F)F)c1,,"phase I trial, refers to: platelet count decreased all grades",human patients,5 mg loading then 0.25 mg daily,patients with adverse event,0%

# For quick reference, copied from above:
SMILES,tested on,assay,test system,setting,quantity,result
C[C@]1(CO)Cc2ncn(-c3ccc(C#N)c(Cl)c3)c2C(=O)O1,,,"human, Chinese, plasma","20 mg single dose, median",tmax,1 h
CC(C)(c1ccccc1)c1cc(-n2nc3ccccc3n2)c(O)c(C(C)(C)c2ccccc2)c1,,exposure assessment,"human, age 2-3 years",spray sunscreen,mean daily dermal uptake,12.9 ng/kg body weight/day
